Earlier results, collected from citations in different studies.
Protocols differ between the studies behind these lines.
CYP3A4: Cytochrome P450 3A4 (CYP3A4, Homo sapiens, UniProt P08684)
UniProt P08684, sequence (whole entry, unmodified, looked up): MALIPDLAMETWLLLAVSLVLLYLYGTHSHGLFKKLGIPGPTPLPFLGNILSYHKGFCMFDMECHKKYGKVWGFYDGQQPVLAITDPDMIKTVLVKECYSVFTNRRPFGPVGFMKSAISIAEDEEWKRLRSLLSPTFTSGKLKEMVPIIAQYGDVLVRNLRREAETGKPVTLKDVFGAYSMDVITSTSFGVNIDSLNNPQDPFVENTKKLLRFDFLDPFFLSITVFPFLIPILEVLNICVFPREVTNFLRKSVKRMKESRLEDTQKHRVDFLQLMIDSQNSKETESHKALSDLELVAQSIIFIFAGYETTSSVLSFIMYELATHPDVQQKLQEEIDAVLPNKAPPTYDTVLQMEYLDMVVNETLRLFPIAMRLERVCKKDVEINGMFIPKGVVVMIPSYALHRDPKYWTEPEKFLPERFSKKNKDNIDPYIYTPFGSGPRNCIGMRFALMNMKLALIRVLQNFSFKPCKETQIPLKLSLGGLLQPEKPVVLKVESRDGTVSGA
UniProt Q9NPD5, sequence (whole entry, looked up): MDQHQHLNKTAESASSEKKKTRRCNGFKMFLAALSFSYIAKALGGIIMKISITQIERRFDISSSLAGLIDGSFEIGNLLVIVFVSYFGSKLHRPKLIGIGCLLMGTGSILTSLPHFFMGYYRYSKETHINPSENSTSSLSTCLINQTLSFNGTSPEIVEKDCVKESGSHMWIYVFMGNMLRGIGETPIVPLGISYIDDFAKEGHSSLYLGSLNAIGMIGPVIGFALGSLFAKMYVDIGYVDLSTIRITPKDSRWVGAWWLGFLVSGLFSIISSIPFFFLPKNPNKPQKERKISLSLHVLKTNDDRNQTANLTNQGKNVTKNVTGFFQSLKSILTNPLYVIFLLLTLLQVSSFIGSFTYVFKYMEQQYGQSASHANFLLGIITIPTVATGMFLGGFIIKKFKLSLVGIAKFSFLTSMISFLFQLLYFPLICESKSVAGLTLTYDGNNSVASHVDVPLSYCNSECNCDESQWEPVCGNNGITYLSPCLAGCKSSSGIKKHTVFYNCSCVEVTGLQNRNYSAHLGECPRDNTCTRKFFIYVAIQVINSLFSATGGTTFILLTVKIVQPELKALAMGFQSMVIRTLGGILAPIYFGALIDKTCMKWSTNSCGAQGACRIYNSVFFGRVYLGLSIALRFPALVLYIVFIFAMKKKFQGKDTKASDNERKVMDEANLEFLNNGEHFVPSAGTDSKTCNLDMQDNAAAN
UniProt P33261, sequence (whole entry, looked up): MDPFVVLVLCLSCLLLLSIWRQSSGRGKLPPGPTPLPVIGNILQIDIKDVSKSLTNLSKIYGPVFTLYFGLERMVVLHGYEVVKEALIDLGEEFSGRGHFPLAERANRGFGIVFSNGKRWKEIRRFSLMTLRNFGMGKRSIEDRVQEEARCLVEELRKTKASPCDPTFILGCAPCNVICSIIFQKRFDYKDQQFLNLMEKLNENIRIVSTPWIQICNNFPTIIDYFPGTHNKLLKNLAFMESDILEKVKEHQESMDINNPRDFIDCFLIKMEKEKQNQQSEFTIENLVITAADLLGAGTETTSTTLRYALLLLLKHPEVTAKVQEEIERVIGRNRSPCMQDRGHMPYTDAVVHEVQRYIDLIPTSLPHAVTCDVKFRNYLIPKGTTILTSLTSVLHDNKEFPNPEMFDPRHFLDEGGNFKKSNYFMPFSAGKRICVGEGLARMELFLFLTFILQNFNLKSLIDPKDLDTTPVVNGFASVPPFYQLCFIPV

SMILES = C[C@]12CC[C@@H]3c4ccc(O)cc4CC[C@H]3[C@@H]1CC[C@@H]2O[C@@H]1O[C@H](C(=O)O)[C@@H](O)[C@H](O)[C@H]1O; target = SLCO1B3 (Homo sapiens, UniProt Q9NPD5); measurement = Ki; value = 24600 nM
SMILES = Cc1c(O)cccc1C(=O)N[C@@H](CSc1ccccc1)[C@H](O)CN1C[C@H]2CCCC[C@H]2C[C@H]1C(=O)NC(C)(C)C; target = Multidrug resistance protein 1a (Rattus norvegicus, UniProt Q6PSM0); test system = rat; setting = corrected for vascular drug, together with: zosuquidar; how to read = reference: without zosuquidar; measurement = brain uptake ratio; value = ≤ 80 fold
SMILES = Cc1c(C(=O)Nc2ccc(S(C)(=O)=O)cc2)cn(CCO)c1-c1ccccc1C(F)(F)F; target = CYP3A; test = urinary and faecal metabolite excretion; measurement = CYP3A contribution to clearance; value = ~30%
SMILES = O=C1CC[C@@]2(O)[C@H]3Cc4ccc(O)c5c4[C@@]2(CCN3CC2CC2)[C@H]1O5; target = UGT2B7 (human); test = glucuronidation, substrate; measurement = Km; value = 50 to 200 µM
SMILES = COc1cc2c(cc1OC)CN(CCc1ccc(NC(=O)c3cc(OC)c(OC)cc3NC(=O)c3cnc4ccccc4c3)cc1)CC2; target = P-glycoprotein; test = rhodamine efflux, inhibitor; test system = CD56-positive lymphocytes; setting = together with: rhodamine 123; measurement = EC50; value = 33 nM
SMILES = O=c1[nH]ncn1-c1ccc(N2CCN(c3ccc(OCC4COC(Cn5cncn5)(c5ccc(Cl)cc5Cl)O4)cc3)CC2)cc1 (stereo not shown); target = CYP3A4; test = competitive inhibitor; how to read = unbound; measurement = Ki; value = 0.38 nM
SMILES = C[C@@H](c1nc(-c2ccc(C#N)cc2)cs1)[C@](O)(Cn1cncn1)c1cc(F)ccc1F; target = CYP2A6; test = enzyme activity, inhibitor; setting = together with: coumarin 7-hydroxylation; measurement = IC50; value = > 100000 nM
SMILES = Nc1nc2cccc(-c3ccc(CN4CCS(=O)(=O)CC4)cc3)n2n1; target = OATP1B3; test = inhibitor; measurement = IC50; value = > 473000 nM
SMILES = CC(O)C(C)n1ncn(-c2ccc(N3CCN(c4ccc(OCC5COC(Cn6cncn6)(c6ccc(Cl)cc6Cl)O5)cc4)CC3)cc2)c1=O (stereo not shown); target = CYP3A4; test = competitive inhibitor; how to read = unbound; measurement = Ki; value = 14.4 nM
SMILES = CONC(=N)c1ccc(-c2ccc(-c3ccc(C(=N)NOC)cc3)o2)cc1; target = CYP4F, recombinant; test = measured: M1 formation; how to read = reference: CYP4F over CYP3A; measurement = intrinsic clearance ratio; value = ≥ 30 fold
SMILES = C[C@@H](O)CCCCn1c(=O)c2c(ncn2C)n(C)c1=O; target = low Km non-CYP enzyme; test = substrate, measured: pentoxifylline formation; test system = human liver microsomes; setting = biphasic kinetics; measurement = Km; value = 0.282 µM
SMILES = CC(=O)C[C@@H](c1ccccc1)c1c(O)c2ccccc2oc1=O; target = CYP2C9; test = substrate; test system = healthy subjects, fed; setting = oral, 10 mg, together with: simeprevir 150 mg; how to read = reference: with over without simeprevir; measurement = AUClast ratio; value = 1.04
SMILES = COc1ccc2[nH]c([S+]([O-])Cc3ncc(C)c(OC)c3C)nc2c1 (stereo not shown); target = CYP2C19 (Homo sapiens, UniProt P33261); test system = human; setting = together with: CYP2C19 poor vs extensive metabolizers; measurement = fraction metabolized; value = 0.93
SMILES = O=C1CC(c2ccccc2)Oc2ccccc21 (stereo not shown); target = CYP2A6 wild type; test = substrate, measured: 6-hydroxyflavanone formation; measurement = turnover number; value = 0.25
SMILES = O=C(O)c1ccnc(N2CC(O)(c3ccc(OCc4c(-c5c(Cl)cccc5Cl)noc4C4CC4)cc3Cl)C2)c1; target = CYP2C8; test = inhibitor; measurement = IC50; value = 2400 nM
SMILES = NC(=O)N1c2ccccc2C=Cc2ccccc21; target = Cytochrome P450 3A4 (CYP3A4, Homo sapiens, UniProt P08684, S18F); test system = human liver microsomes and hepatocytes; setting = 5 µM, together with: 100 µM pregnenolone sulfate; how to read = reference: without pregnenolone sulfate; measurement = metabolism rate increase; value = 2 to 6 fold

Excerpt of the above:
SMILES = Cc1c(C(=O)Nc2ccc(S(C)(=O)=O)cc2)cn(CCO)c1-c1ccccc1C(F)(F)F; target = CYP3A; test = urinary and faecal metabolite excretion; measurement = CYP3A contribution to clearance; value = ~30%
SMILES = O=c1[nH]ncn1-c1ccc(N2CCN(c3ccc(OCC4COC(Cn5cncn5)(c5ccc(Cl)cc5Cl)O4)cc3)CC2)cc1 (stereo not shown); target = CYP3A4; test = competitive inhibitor; how to read = unbound; measurement = Ki; value = 0.38 nM
